Results pooled from the literature.
Each line is one published result; not all experiments were run side by side.
CDK18: Cyclin-dependent kinase 18 (CDK18, Homo sapiens, UniProt Q07002)
CDK18 with cyclin Y: Cyclin-dependent kinase 18, with cyclin Y (CDK18, Homo sapiens, UniProt Q07002)

`CNC(=O)C1CCN(c2cc(C)c(F)cc2NC(=O)c2ccc(-c3cc(O)ccc3C)c(C)c2)CC1` has a remaining binding of 100% (CDK18; binding, competition with immobilised ligand; 1 µM).
For `COc1ccc(O)cc1-c1c[nH]c2ncc(-c3cncc(C(=O)N(C)C)c3)cc12`, the inhibition was 0.4% (CDK18 with cyclin Y; binding, competition with immobilised ligand; 0.2 µM).
`CCn1cc(C(=O)O)c(=O)c2c(N)c(F)c(NC3CCCCC3)cc21` gave an inhibition of 52.1% (CDK18 with cyclin Y; kinase activity; 0.1 µM, added: ATP at Km).
`C=CC(=O)N1Cc2nc(-c3cc(-c4cc(Cl)cnc4Cl)c(F)cc3F)n(-c3ccncn3)c2C1` gave an inhibition of 4% (CDK18 with cyclin Y; cell-free assay, inhibitor; 1 µM).
`COc1c(Cl)cccc1Nc1c(-c2ccncc2C#C[C@@]2(C)CCCN2C(=O)/C=C/CN(C)C)[nH]c2c1C(=O)NCC2` gave a remaining binding of 99% (CDK18; cell-free assay, competition with immobilised ligand; 3 µM).
With `CNC1C[S+]2CC[S+]3CC[S+](C1)[Ru-4]321([N]=C=S)[n]2c3ccc(OC)cc3c3c4c(c5cc(F)c[n+]1c5c32)C(=O)NC4=O` (stereo not drawn) the remaining binding was 93% (CDK18; KinomeScan; 0.1 µM; relative to: untreated).
`Cc1ccc(-c2c(/C=C(\C#N)C(=O)NC(C)C)n(CCCO)c3ncnc(N)c23)cc1` has a remaining binding of 92% (CDK18; cell-free assay, competition with immobilised ligand; 1 µM).
For `C=CC(=O)N1CCCC(n2c(=O)c3ncccc3n(Cc3ccc(Oc4ccccc4)cc3)c2=O)C1` (stereo not drawn), the remaining binding was 90% (CDK18; cell-free assay, competition with immobilised ligand; 1 µM).
The remaining binding of `C=CC(=O)N1CCc2ccc(-n3c(=O)ccc4cnc5ccc(-c6cnn(C)c6)cc5c43)cc21` is reported as 98% (CDK18; KINOMEscan; 1 µM; relative to: DMSO control).
The remaining binding of `CCN1CCN(Cc2ccc(C(=O)Nc3ccc(C)c(NCc4cnc5[nH]ccc5c4OC)c3)cc2C(F)(F)F)CC1` is reported as 100% (CDK18; binding, competition with immobilised ligand; 1 µM).
`CN1CCN(Cc2ccc(-c3ccc(CO[C@H]4CCC[C@@H]4NC(=O)c4cc(-c5cnn(C)c5)cnc4N)cc3)cc2)CC1` gave an inhibition of 6% (CDK18 with cyclin Y; enzyme activity, inhibitor; 0.1 µM).
For `CNC(=O)C[C@H](Cc1ccc(C#N)cc1)NC(=O)c1cc(-c2ccc(CN[C@H](C)c3ccc(C)cc3)o2)ccc1Cl`, “activity vs control” read 108% (CDK18 with cyclin Y; enzyme activity, inhibitor; 1 µM).
For `CC(C)=CC1OC(C)(C)C2C=C3C(=O)C(Cl)=CC(O)C3C3C(O)C4OC4C(=O)C132` (stereo not drawn), the remaining binding was 95% (CDK18; cell-free assay, competition with immobilised ligand; 10 µM).
Under “activity vs control”, `O=C(Cc1ccc(OCc2ccccc2)cc1)NC1(C(=O)O)CCN(C(=O)c2ccc(-c3cccc(Cl)c3)cc2)CC1` is recorded as 104% (CDK18 with cyclin Y; enzyme activity, inhibitor; 10 µM).
`COc1cc(Nc2nc(C)cc(-c3cnn4nc(OC)ccc34)n2)cc(C(F)(F)F)c1` has a remaining activity of 87% (CDK18; inhibitor; 1 µM; relative to: control).
With `Nc1ncc2c(n1)-c1c([nH]c3ccc(C4=CCOCC4)cc13)CCC2` the remaining binding was 100% (CDK18; binding, competition with immobilised ligand; 1 µM).
`CN1CC[C@@H](COc2cnc(C#N)cc2-c2ccn3nc(NC(=O)C4CC4)cc3c2)C1` has an inhibition of 7% (CDK18 with cyclin Y; enzyme activity, inhibitor; 1 µM).
`Cc1cnc2nc1Nc1cccc(c1)COC/C=C/COCc1cc(ccc1OCCN1CCOCC1)N2` gave a remaining binding of 97% (CDK18; binding; 0.1 µM).
`COc1ccc(C(=O)/C=C/c2ccccc2-c2c[nH]c3ccc(C#N)cc23)c(O)c1` has an inhibition of 11% (CDK18 with cyclin Y; enzyme activity, inhibitor; 20 µM).
For `COc1cc(Nc2nccc(-c3cnn4nc(OC)ccc34)n2)cc(C(F)(F)F)c1`, the remaining binding was 87% (CDK18; binding, competition with immobilised ligand; 1 µM).
`Nc1ncc(-c2cc(-c3cnn(CC(F)(F)F)c3)ncc2F)nc1C(=O)NC1CNCC(F)C1` (stereo not drawn) gave a remaining activity of 88.7% (CDK18 with cyclin Y; enzyme activity; 1 µM; relative to: DMSO control).

Some of these lines once more:
For `CNC(=O)C[C@H](Cc1ccc(C#N)cc1)NC(=O)c1cc(-c2ccc(CN[C@H](C)c3ccc(C)cc3)o2)ccc1Cl`, “activity vs control” read 108% (CDK18 with cyclin Y; enzyme activity, inhibitor; 1 µM).
`C=CC(=O)N1Cc2nc(-c3cc(-c4cc(Cl)cnc4Cl)c(F)cc3F)n(-c3ccncn3)c2C1` gave an inhibition of 4% (CDK18 with cyclin Y; cell-free assay, inhibitor; 1 µM).
